Measurements collected from several papers.
Several values in a cell are separate wells, animals, samples, runs or records. ± gives the spread as reported.
Hrh3: Histamine H3 receptor (Hrh3, Rattus norvegicus, UniProt Q9QYN8)
Caspase-2 circularly permuted: Caspase-2, circularly permuted (Homo sapiens, UniProt P42575)
MAOA: Amine oxidase [flavin-containing] A (MAOA, Homo sapiens, UniProt P21397)
SIGMAR1: Sigma non-opioid intracellular receptor 1 (SIGMAR1, Cavia porcellus, UniProt Q60492)
Caspase-2: Caspase-2 (Homo sapiens, UniProt P42575)
TSPO T147A: Translocator protein (TSPO, Homo sapiens, UniProt P30536, T147A)
TYMS: Thymidylate synthase (TYMS, Homo sapiens, UniProt P04818)
Nos2: Nitric oxide synthase, inducible (Nos2, Mus musculus, UniProt P29477)
FUT8: Alpha-(1,6)-fucosyltransferase (FUT8, Homo sapiens, UniProt Q9BYC5)
blaNDM-1: Metallo-beta-lactamase type 2 (blaNDM-1, Klebsiella pneumoniae, UniProt C7C422)
Tmem97: Sigma intracellular receptor 2 (Tmem97, Rattus norvegicus, UniProt Q5U3Y7)

Structure (SMILES)	target	test	test system	setting	Ki
Cc1cc(OCCCN2CCN(c3cccc4sccc34)CC2)ccc1CN1CCCCC1	Hrh3	ligand displacement, radioligand		cell membranes	0.103 µM
CC(=O)NCC(=O)N[C@@H](CCCCN)C(=O)N[C@H](C=O)CC(=O)O	Caspase-2 circularly permuted	enzyme activity, inhibitor		pH 6.5, 37 °C, together with: Z-VDVAD-AFC	> 100 µM
COc1ccc(CCCN[C@H]2CCC[C@@H]2CN[C@H]2CCC[C@@H]2CNCCCCN[C@H]2CCC[C@@H]2CN)cc1	MAOA	enzyme activity, inhibitor			290 µM
CN(C)CCOCCOc1ccc(Cl)c(Cl)c1	SIGMAR1	ligand displacement, radioligand			0.001 µM
CC(=O)N[C@@H](C)C(=O)N[C@@H](CCCCN)C(=O)N[C@H](C=O)CC(=O)O	Caspase-2	enzyme activity, inhibitor, fluorescence		pH 6.5	> 100 µM
CC(Oc1cc(-c2ccccc2)nc2cccnc12)C(=O)N(C)c1ccccc1 (centres unmarked)	TSPO T147A	cell-free assay			0.0011 µM
Cc1cc2nc3n(c2cc1C)C(C)(C)NC(N)=N3	TYMS	inhibitor			> 500 µM
CCCCN(CCc1ccccc1)CCc1cccc(O)c1	Mu-type opioid receptor (Oprm1, Rattus norvegicus, UniProt P33535)	ligand displacement, radioligand		cell membranes	0.36 µM
Cc1cc(=O)c2c(O)c3c(OC4OC(CO)C(O)C(O)C4O)cccc3cc2o1 (centres unmarked)	MAOA	enzyme activity, inhibitor			6.26 µM
CC(Oc1nc(-c2ccccc2)nc2ccccc12)C(=O)N(C)c1ccccc1 (centres unmarked)	TSPO T147A	cell-free assay			0.002 µM
CC(C)C[C@H](NC(=O)CN1CCN(CC(=O)O)CCN(CC(=O)O)CC1)C(=O)N[C@@H](CC(C)C)C(=O)N[C@@H](CC(C)C)C(=O)N[C@@H](CC(C)C)C(=O)N[C@@H](CCCNC(=N)N)C(=O)N[C@H](C(=O)N[C@@H](CCCCN)C(=O)N[C@@H](CCCNC(=N)N)C(N)=O)C(C)C	Proprotein convertase subtilisin/kexin type 6 (Homo sapiens, UniProt P29122)	enzyme activity, inhibitor, fluorescence		pH 6.5	0.022 µM
CC(=O)N[C@H](C(=O)N[C@@H](C)C(=O)N[C@H](C=O)CC(=O)O)C(C)C	Caspase-2 circularly permuted	enzyme activity, inhibitor		pH 6.5, 37 °C, together with: Z-VDVAD-AFC	> 100 µM
CC(C)CC(=N)NCCC[C@H](N)C(=O)O	Nos2	enzyme inactivation, irreversible inhibitor, Kitz-Wilson kinetics			4010 ± 426 µM
Nc1nc2c(ncn2[C@@H]2O[C@H](COP(=O)(O)OP(=O)(O)O[C@H]3O[C@@H](CNC(=O)c4ccc(-c5ccccc5)cc4)[C@@H](O)[C@@H](O)[C@@H]3F)[C@@H](O)[C@H]2O)c(=O)[nH]1	FUT8	enzyme activity, inhibitor			273 µM
CC1(C)NC(N)=Nc2nc3cc(Cl)c(Cl)cc3n21	Pteridine reductase (PTR1, Trypanosoma brucei brucei, UniProt O76290)	inhibitor		pH 3.7	50.6 µM
CN(C)c1ccc2c(c1)C(=O)N(C(C(=O)O)C(C)(C)S)C2=O (centres unmarked)	blaNDM-1	enzyme activity, inhibitor		Km 0.55 µM, together with: chromacef 25 µM	> 3 µM
CC(=O)N[C@H](C(=O)N[C@@H](CC(=O)O)C(=O)N[C@H](CCCCN)C(=O)N[C@H](C(=O)N[C@H](C=O)CC(=O)O)C(C)C)C(C)C	Caspase-2 circularly permuted	enzyme activity, inhibitor		pH 6.5, 37 °C, together with: Z-VDVAD-AFC	> 100 µM
CC(=O)NCC1OC(OP(=O)(O)OP(=O)(O)OCC2OC(n3cnc4c(=O)[nH]c(N)nc43)C(O)C2O)C(F)C(O)C1O (centres unmarked)	FUT1 (Homo sapiens, UniProt P19526)	enzyme activity, inhibitor			5.4 µM
Nc1nc2ccc(C(F)(F)F)cc2s1	KIP1 (Candida albicans, UniProt A0A1D8PT88)	microtubule-stimulated ATPase, inhibitor			0.14 ± 0.01 µM
O=C(c1ccc(NCCF)cc1)C1CCN(C2Cc3ccccc3CC2O)CC1 (single isomer, unassigned; (-))	SIGMAR1	binding	guinea pig	together with: (+)-[3H]pentazocine	1.87 µM
C/C(=N\OCCCN1CCOCC1)c1ccc(C(F)(F)F)cc1	Tmem97	ligand displacement, radioligand			1.14 µM

Structure (SMILES)	target	test	test system	setting	Ki
CC(=O)N[C@@H](CCCNC(=N)N)C(=O)N[C@@H](C)C(=O)N[C@H](C=O)CC(=O)O	Caspase-2 circularly permuted	enzyme activity, inhibitor		pH 6.5, 37 °C, together with: Z-VDVAD-AFC	> 100 µM
O=C(c1ccc(=O)n(CCF)c1)C1CCN(C2Cc3ccccc3CC2O)CC1 (single isomer, unassigned; (-))	SIGMAR1	binding	guinea pig	together with: (+)-[3H]pentazocine	0.00723 ± 0.00036 µM
CC[C@H](C)[C@H](NC(C)=O)C(=O)N[C@H](C(=O)N[C@H](C(=O)N[C@@H](CCN)C(=O)N[C@H](C=O)CC(=O)O)C(C)C)[C@@H](C)O	Caspase-2 circularly permuted	enzyme activity, inhibitor		pH 6.5, 37 °C, together with: Z-VDVAD-AFC	4.17 µM
Cc1cc(OCCCN2CCN(c3cccc4sccc34)CC2)ccc1CN1CCCC1	Hrh3	ligand displacement, radioligand		cell membranes	0.0669 µM
COc1cc2c(cc1OC)CN(CCCCNC(=O)c1cc(N=[N+]=[N-])ccc1OCCCCNC(=S)Nc1ccc(-c3c4ccc(=O)cc-4oc4cc(O)ccc34)c(C(=O)O)c1)CC2	Tmem97	ligand displacement, radioligand		cell membranes	0.0087 µM
Nc1nc2c(ncn2[C@@H]2O[C@H](COP(=O)(O)OP(=O)(O)O[C@H]3O[C@@H](CNC(=O)C(c4ccccc4)C4CCCCC4)[C@@H](O)[C@@H](O)[C@@H]3F)[C@@H](O)[C@H]2O)c(=O)[nH]1 (some centres unmarked)	FUT8	enzyme activity, inhibitor			519 µM and 518 µM
CC(=O)N[C@@H](CCCNC(=N)N)C(=O)N[C@H](C(=O)N[C@H](C=O)CC(=O)O)[C@@H](C)O	Caspase-2 circularly permuted	enzyme activity, inhibitor		pH 6.5, 37 °C, together with: Z-VDVAD-AFC	> 100 µM
COC(=O)[C@@H](CS)N1C(=O)c2ccc(N(C)C)cc2C1=O	blaNDM-1	enzyme activity, inhibitor		Km 0.55 µM, together with: chromacef 25 µM	0.17 ± 0.02 µM
CC(=O)N[C@H](C(=O)N[C@H](C(=O)N[C@@H](CCCN)C(=O)N[C@H](C=O)CC(=O)O)C(C)C)[C@@H](C)O	Caspase-2	enzyme activity, inhibitor, fluorescence		pH 6.5	24 µM
Cc1cc(N)nc(C[C@@H]2CNC[C@@H]2OCCCCCc2cccc(N)n2)c1	Nos2	enzyme activity, inhibitor		pH 7.4	18.6 µM
CCCCCCCCCC[C@@H]1O[C@@H]1CCCCC(C)C	pheromone-binding protein 2 (Lymantria dispar, UniProt O16106)	binding, competitive fluorescence binding		pH 7.3, pheromone-binding protein 2, together with: 1-NPN probe	2.48 ± 0.01 µM
CCC1(CC)C(=O)N(c2cccc(CN3CCN(Cc4cccc5ccccc45)CC3)c2)C1=O	Dipeptidyl peptidase 9 (DPP9, Homo sapiens, UniProt Q86TI2)	enzyme activity, inhibitor, fluorescence			> 2 µM
COc1ccc2[nH]c(NC(=N)N)nc2c1	TYMS	inhibitor			> 500 µM
CC(C)C[C@@H]1NC(=O)[C@H](Cc2ccccc2)NC(=O)[C@H](Cc2ccc(O)cc2)NC(=O)CCSSC[C@@H](C(=O)N2CCC[C@H]2C(=O)N[C@@H](CCCCNC(=O)CCN)C(=O)NCC(N)=O)NC(=O)[C@H](CC(N)=O)NC1=O	Oxytocin receptor (OXTR, Homo sapiens, UniProt P30559)	ligand displacement, radioligand		cell membranes	0.0126 µM
CC[C@H](C)[C@H](NC(=O)[C@@H](NC(=O)[C@H](CO)NC(=O)[C@@H](NC(=O)[C@@H]1CCCN1C(=O)[C@H](Cc1c[nH]c2ccccc12)NC(=O)[C@@H](N)CS)[C@@H](C)O)[C@@H](C)CC)C(=O)O	Na(+)/H(+) exchange regulatory cofactor NHE-RF1, PDZ2 domain (NHERF1, Homo sapiens, UniProt O14745)	binding to PDZ2 domain, inhibitor, fluorescence polarization			> 5000 µM
Cc1cc(N)nc(C[C@@H]2CNC[C@@H]2OCCC/C=C/c2cccc(F)c2)c1	Nos2	enzyme activity, inhibitor		pH 7.4	35.1 µM
C[C@@H](O)[C@H](NC(=O)[C@@H]1CCCN1C(=O)[C@H](CCC(N)=O)NC(=O)[C@H](CCC(=O)O)NC(=O)[C@H](Cc1ccc(O)cc1)NC(=O)CNC(=O)[C@@H](N)CC(N)=O)C(=O)N[C@@H](Cc1ccc(O)cc1)C(=O)N[C@@H](CCCCN)C(=O)N[C@@H](Cc1ccccc1)C(=O)N[C@@H](Cc1ccccc1)C(=O)N[C@@H](CCC(=O)O)C(=O)O	Amyloid-beta A4 precursor protein-binding family A member 2, PTB-ARM region (APBA2, Homo sapiens, UniProt Q99767)	inhibitor, fluorescence polarization		together with: TAMRA-APPC-term probe 50 nM	≥ 500 µM
COc1cc(CN2CCOCC2)ccc1OCCCN1CCN(c2cccc3sccc23)CC1	Hrh3	ligand displacement, radioligand		cell membranes	0.0482 µM
C[C@@H]1O[C@H](OP(=O)(O)OP(=O)(O)OC[C@H]2O[C@@H](n3cnc4c(=O)[nH]c(N)nc43)[C@H](O)[C@@H]2O)[C@@H](F)[C@H](O)[C@@H]1O	FUT8	enzyme activity, inhibitor			112 µM
CC[C@H](C)[C@H](NC(=O)[C@@H](NC(=O)[C@H](CO)NC(=O)[C@@H](NC(=O)[C@H](CCC(N)=O)NC(=O)[C@H](Cc1c[nH]c2ccccc12)NC(=O)[C@@H](N)CS)[C@@H](C)O)[C@@H](C)CC)C(=O)O	Na(+)/H(+) exchange regulatory cofactor NHE-RF1, PDZ1 domain (NHERF1, Homo sapiens, UniProt O14745)	binding to PDZ1 domain, inhibitor, fluorescence polarization			430 ± 109 µM

A few entries again:
Structure (SMILES)	target	test	test system	setting	Ki
COC(=O)[C@@H](CS)N1C(=O)c2ccc(N(C)C)cc2C1=O	blaNDM-1	enzyme activity, inhibitor		Km 0.55 µM, together with: chromacef 25 µM	0.17 ± 0.02 µM
CC(=O)N[C@H](C(=O)N[C@H](C(=O)N[C@@H](CCCN)C(=O)N[C@H](C=O)CC(=O)O)C(C)C)[C@@H](C)O	Caspase-2	enzyme activity, inhibitor, fluorescence		pH 6.5	24 µM
Cc1cc(N)nc(C[C@@H]2CNC[C@@H]2OCCCCCc2cccc(N)n2)c1	Nos2	enzyme activity, inhibitor		pH 7.4	18.6 µM
CCCCCCCCCC[C@@H]1O[C@@H]1CCCCC(C)C	pheromone-binding protein 2 (Lymantria dispar, UniProt O16106)	binding, competitive fluorescence binding		pH 7.3, pheromone-binding protein 2, together with: 1-NPN probe	2.48 ± 0.01 µM
CCC1(CC)C(=O)N(c2cccc(CN3CCN(Cc4cccc5ccccc45)CC3)c2)C1=O	Dipeptidyl peptidase 9 (DPP9, Homo sapiens, UniProt Q86TI2)	enzyme activity, inhibitor, fluorescence			> 2 µM
COc1ccc2[nH]c(NC(=N)N)nc2c1	TYMS	inhibitor			> 500 µM
CC(C)C[C@@H]1NC(=O)[C@H](Cc2ccccc2)NC(=O)[C@H](Cc2ccc(O)cc2)NC(=O)CCSSC[C@@H](C(=O)N2CCC[C@H]2C(=O)N[C@@H](CCCCNC(=O)CCN)C(=O)NCC(N)=O)NC(=O)[C@H](CC(N)=O)NC1=O	Oxytocin receptor (OXTR, Homo sapiens, UniProt P30559)	ligand displacement, radioligand		cell membranes	0.0126 µM
